Measured values from different studies.
Compare with care: the assays were run in different laboratories. Numbers after ± are the reported error.
USP51: Ubiquitin carboxyl-terminal hydrolase 51 (USP51, Homo sapiens, UniProt Q70EK9)
Sequence of UniProt Q70EK9 (whole entry, looked up): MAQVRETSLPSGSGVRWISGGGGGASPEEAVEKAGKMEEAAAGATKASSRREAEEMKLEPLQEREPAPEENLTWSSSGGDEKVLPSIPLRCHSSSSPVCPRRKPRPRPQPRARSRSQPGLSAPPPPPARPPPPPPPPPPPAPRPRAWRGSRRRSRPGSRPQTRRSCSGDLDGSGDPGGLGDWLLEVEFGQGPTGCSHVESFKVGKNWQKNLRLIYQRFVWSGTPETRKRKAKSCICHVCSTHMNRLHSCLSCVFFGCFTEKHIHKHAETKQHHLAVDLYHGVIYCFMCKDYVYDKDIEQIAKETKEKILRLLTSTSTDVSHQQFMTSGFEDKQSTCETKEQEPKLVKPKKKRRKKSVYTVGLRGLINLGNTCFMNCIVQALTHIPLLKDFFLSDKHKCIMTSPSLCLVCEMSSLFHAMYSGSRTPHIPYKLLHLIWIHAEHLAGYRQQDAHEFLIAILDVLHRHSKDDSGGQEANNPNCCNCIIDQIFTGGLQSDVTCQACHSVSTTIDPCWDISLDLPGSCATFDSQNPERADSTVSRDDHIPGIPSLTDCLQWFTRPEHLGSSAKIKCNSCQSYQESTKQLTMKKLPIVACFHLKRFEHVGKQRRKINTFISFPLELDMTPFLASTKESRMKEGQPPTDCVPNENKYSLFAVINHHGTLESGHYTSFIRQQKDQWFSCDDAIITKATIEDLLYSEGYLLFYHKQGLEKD
Adhesin FmlH lectin domain: Adhesin FmlH, lectin domain (Escherichia coli, UniProt Q1RBS0)
PTGS1: Prostaglandin G/H synthase 1 (PTGS1, Ovis aries, UniProt P05979)
Sequence of UniProt P05979 (whole entry, looked up): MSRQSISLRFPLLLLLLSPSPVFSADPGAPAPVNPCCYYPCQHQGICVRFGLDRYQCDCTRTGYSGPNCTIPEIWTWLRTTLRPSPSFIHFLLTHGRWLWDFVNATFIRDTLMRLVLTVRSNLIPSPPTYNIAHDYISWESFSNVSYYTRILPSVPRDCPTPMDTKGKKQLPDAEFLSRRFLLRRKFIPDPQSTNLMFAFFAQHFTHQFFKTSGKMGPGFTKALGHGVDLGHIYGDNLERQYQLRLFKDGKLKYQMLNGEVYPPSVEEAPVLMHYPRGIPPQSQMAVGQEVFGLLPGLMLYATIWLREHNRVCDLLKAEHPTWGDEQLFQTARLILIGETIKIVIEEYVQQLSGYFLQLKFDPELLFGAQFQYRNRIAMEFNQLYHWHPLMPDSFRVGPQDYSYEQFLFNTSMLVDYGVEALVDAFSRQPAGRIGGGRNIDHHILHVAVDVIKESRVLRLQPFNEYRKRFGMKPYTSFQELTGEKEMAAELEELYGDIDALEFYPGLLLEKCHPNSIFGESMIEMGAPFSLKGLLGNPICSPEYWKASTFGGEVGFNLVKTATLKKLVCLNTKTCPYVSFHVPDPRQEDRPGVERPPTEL
VRK1: Serine/threonine-protein kinase VRK1 (VRK1, Homo sapiens, UniProt Q99986)
Sequence of UniProt Q99986 (whole entry, looked up): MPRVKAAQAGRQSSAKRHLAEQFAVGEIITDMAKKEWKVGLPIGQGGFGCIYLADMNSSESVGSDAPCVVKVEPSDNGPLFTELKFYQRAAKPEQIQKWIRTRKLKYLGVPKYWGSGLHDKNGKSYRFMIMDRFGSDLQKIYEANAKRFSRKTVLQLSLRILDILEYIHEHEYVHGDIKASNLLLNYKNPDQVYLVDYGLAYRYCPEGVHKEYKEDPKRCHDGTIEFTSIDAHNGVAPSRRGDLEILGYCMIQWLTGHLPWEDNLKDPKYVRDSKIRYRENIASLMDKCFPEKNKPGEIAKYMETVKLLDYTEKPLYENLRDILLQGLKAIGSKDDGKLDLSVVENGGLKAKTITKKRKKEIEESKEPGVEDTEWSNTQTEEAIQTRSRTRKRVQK
PLG: Plasminogen (PLG, Homo sapiens, UniProt P00747)
Sequence of UniProt P00747 (whole entry, looked up): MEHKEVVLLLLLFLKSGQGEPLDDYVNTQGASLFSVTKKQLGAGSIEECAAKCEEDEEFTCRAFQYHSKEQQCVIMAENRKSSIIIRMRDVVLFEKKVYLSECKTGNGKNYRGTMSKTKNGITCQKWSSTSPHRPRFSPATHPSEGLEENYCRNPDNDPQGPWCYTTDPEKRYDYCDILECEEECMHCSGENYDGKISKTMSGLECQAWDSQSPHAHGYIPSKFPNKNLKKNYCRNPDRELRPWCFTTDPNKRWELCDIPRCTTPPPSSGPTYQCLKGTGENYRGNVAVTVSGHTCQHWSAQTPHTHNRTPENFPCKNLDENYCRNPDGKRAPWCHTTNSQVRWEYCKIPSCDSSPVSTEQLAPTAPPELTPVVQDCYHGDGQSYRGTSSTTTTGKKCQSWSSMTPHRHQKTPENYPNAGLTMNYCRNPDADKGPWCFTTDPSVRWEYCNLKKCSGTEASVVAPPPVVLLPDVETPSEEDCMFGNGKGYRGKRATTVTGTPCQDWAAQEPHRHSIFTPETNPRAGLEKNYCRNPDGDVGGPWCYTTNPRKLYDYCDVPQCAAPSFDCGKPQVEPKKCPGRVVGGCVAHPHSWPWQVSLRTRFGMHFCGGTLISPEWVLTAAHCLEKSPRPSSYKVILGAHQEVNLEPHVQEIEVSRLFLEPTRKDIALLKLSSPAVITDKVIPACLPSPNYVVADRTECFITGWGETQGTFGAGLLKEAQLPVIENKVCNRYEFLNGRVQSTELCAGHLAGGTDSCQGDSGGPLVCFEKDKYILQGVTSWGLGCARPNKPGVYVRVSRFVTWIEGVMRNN
ADRA2C: Alpha-2C adrenergic receptor (ADRA2C, Homo sapiens, UniProt P18825)
Sequence of UniProt P18825 (whole entry, looked up): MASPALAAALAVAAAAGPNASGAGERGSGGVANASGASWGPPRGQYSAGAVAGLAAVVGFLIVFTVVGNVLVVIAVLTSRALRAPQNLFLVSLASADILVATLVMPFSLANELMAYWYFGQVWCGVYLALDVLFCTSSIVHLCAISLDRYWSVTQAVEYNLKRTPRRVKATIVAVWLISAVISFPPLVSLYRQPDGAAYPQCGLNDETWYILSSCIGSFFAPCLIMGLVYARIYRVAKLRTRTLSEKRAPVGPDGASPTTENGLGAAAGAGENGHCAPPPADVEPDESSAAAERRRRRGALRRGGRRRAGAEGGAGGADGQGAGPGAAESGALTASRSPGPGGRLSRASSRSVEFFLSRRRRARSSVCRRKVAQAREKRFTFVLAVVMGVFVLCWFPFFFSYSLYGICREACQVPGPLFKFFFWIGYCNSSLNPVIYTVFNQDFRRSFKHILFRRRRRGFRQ
HTR5A: 5-hydroxytryptamine receptor 5A (HTR5A, Homo sapiens, UniProt P47898)
Sequence of UniProt P47898 (whole entry, looked up): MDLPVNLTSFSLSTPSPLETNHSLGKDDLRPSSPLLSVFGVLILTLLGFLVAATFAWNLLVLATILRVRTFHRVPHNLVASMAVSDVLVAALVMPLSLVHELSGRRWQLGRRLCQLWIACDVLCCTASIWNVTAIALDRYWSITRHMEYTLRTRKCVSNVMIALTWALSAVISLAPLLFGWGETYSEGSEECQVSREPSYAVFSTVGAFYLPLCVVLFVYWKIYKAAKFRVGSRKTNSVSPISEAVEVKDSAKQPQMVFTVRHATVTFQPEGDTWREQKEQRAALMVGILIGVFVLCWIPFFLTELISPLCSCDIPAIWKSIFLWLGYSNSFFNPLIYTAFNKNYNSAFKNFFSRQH
MAL12: Alpha-glucosidase MAL12 (MAL12, Saccharomyces cerevisiae S288c, UniProt P53341)
Sequence of UniProt P53341 (whole entry, looked up): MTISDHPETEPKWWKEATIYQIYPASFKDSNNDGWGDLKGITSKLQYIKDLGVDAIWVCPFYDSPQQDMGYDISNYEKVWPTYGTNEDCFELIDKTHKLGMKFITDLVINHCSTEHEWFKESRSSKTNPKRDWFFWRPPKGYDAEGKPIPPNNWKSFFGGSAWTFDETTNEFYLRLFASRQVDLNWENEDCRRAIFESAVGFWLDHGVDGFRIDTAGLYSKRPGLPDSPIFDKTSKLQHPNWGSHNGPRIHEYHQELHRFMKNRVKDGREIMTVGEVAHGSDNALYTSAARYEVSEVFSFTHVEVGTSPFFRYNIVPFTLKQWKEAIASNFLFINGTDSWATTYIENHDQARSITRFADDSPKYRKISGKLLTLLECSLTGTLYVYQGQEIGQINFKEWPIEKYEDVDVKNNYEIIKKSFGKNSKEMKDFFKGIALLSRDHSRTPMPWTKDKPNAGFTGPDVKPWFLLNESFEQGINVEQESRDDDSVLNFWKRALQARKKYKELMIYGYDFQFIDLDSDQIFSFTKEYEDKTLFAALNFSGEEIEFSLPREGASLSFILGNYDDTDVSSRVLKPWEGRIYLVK
CAPN1: Calpain-1 catalytic subunit (CAPN1, Homo sapiens, UniProt P07384)
Sequence of UniProt P07384 (whole entry, looked up): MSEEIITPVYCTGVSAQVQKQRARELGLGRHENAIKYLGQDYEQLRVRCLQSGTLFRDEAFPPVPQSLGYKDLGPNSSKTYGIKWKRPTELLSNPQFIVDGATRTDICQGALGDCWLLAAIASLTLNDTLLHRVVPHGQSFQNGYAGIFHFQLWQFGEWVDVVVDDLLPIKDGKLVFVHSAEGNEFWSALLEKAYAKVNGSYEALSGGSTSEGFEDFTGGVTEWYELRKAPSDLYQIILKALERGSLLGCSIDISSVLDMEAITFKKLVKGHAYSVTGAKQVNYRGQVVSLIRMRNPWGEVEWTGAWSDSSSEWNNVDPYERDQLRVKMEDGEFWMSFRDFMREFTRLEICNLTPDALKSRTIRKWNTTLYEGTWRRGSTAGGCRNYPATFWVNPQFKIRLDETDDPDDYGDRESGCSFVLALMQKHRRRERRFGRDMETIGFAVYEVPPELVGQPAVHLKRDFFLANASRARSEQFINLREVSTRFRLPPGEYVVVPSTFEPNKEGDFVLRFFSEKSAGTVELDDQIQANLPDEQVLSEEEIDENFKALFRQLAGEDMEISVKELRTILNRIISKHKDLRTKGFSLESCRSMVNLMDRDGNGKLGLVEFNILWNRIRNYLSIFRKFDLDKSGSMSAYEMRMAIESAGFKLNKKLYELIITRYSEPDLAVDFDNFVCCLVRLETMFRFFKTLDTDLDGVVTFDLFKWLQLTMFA
Sequence of UniProt P47211 (whole entry, looked up): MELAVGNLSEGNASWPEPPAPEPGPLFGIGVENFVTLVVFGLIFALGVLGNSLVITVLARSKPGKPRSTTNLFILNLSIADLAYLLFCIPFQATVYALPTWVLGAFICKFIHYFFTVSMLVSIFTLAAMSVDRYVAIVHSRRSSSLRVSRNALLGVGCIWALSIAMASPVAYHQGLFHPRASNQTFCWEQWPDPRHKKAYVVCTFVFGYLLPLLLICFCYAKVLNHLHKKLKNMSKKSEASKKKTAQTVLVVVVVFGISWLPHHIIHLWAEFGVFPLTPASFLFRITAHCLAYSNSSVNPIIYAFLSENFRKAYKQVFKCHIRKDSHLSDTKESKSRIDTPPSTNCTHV

Compound	target	test	test system	setting	inhibition [%]
O=C(Nc1cccc(C(=O)Nc2ccc(S(=O)(=O)O)c3cc(S(=O)(=O)O)cc(S(=O)(=O)O)c23)c1)Nc1cccc(C(=O)Nc2ccc(S(=O)(=O)O)c3cc(S(=O)(=O)O)cc(S(=O)(=O)O)c23)c1	Genome polyprotein, NS3 helicase domain (Hepatitis C virus genotype 1b, UniProt Q9WMX2)	DNA binding, inhibitor	hepatitis C virus	100 µM, added: Cy5-dT15 DNA	91
CCCc1cc(C2CCCN2C(=O)c2cc(-c3ccc(OC)c(OC)c3)on2)no1 (stereo not drawn)	USP51	enzyme activity, inhibitor	–	1 µM	26.3 ± 9.2
O=C(Nc1ccc(C(F)F)cc1)[C@H](CC1CCCCC1)Nc1nn2c(=O)ccnc2s1	Tyrosine-protein phosphatase non-receptor type 4 (Homo sapiens, UniProt P29074)	enzyme activity, inhibitor	–	10 µM	-6
Cc1cc(=O)oc2cc(O[C@@H]3O[C@H](CO)[C@H](O)[C@H](O)[C@H]3O)ccc12	Adhesin FmlH lectin domain	binding to desialylated mucin, ELISA competition	UPEC UTI89	100 µM	85.3 ± 0.7
CC(C)Cc1ccc(-c2nn(-c3ccc(S(C)(=O)=O)cc3)cc2C=NN=c2[nH]c(-c3ccc(Br)cc3)cs2)cc1	PTGS1	enzyme activity	–	0.01 µM	3.44
COc1cc(C(=O)Nc2ccccc2SCc2nnc(-c3ccccc3)o2)cc(OC)c1OC	USP51	enzyme activity, inhibitor	–	1 µM	25.4 ± 5.6
Cc1ccc(-c2nn(-c3ccc(S(C)(=O)=O)cc3)cc2C=NN=c2[nH]c(-c3ccc(Br)cc3)cs2)cc1 (mixture of isomers)	PTGS1	enzyme activity	–	0.01 µM	6.49
O=C1CO[C@H](CNC(=O)C2(c3ccc(Cl)cc3)CC2)CN1C1Cc2ccccc2C1	CX3CR1 (Homo sapiens, UniProt P49238)	β-arrestin recruitment, antagonist	–	1 µM	8
COc1ccc(S(=O)(=O)c2c(O)c3ccc(C(=O)Nc4ccc(F)cc4)cc3[nH]c2=O)cc1	USP51	enzyme activity, inhibitor	–	1 µM	22 ± 5
CCn1cc(C(=O)O)c(=O)c2c(N)c(F)c(NC3CCCCC3)cc21	VRK1	kinase activity	–	0.1 µM, added: ATP at Km	6.6
COc1ccc(C[C@H](NC(=O)Cc2cccc(Oc3ccccc3)c2)C(=O)N[C@@H](Cc2c[nH]c3ccccc23)C(=O)NCc2ccc(C)cc2)cc1OC	PLG	enzyme activity, inhibitor	–	100 µM	-15
Brc1ccccc1-c1nnc(CSc2nnnn2-c2ccccc2)o1	ADRA2C	ligand displacement, radioligand	–	10 µM	8
CN(Cc1ccc(/C=C/C(=O)NO)cc1)CC12CC3CC(CC(C3)C1)C2	human CCR1 receptor	radioligand binding	–	0.05 µM	6
CS(=O)(=O)c1ccc(-n2cc(C=NN=c3[nH]c(-c4ccc(Br)cc4)cs3)c(-c3ccc([N+](=O)[O-])cc3)n2)cc1 (mixture of isomers)	PTGS1	enzyme activity	–	1 µM	18.5
CC(C)Cn1c(SCC(=O)N2CCc3ccccc3C2)nc2cc(Cl)ccc2c1=O	HTR5A	ligand displacement, radioligand	–	10 µM	12
COc1cc(-c2cc(CN(Cc3ccc(F)cc3)S(=O)(=O)c3ccccc3)no2)cc(OC)c1OC	USP51	enzyme activity, inhibitor	–	1 µM	32.2 ± 13.6
C[C@@H]1CN(Cc2ccccc2)[C@H]2C[C@@H]1CC(=O)[C@@H]2C	Mu-type opioid receptor (Cavia porcellus, UniProt A0ACM8Q262)	binding, radioligand binding	guinea pig brain membranes	1 µM, added: [3H]DAMGO	47
C[C@@H]1O[C@@H](Oc2ccc(CC(N)=O)cc2)[C@H](O)[C@H](O)[C@H]1O	MAL12	inhibitor	–	100 µg/mL, 0.4167 h, added: p-nitrophenyl glucoside substrate	44.9 ± 2.82
CS(=O)(=O)c1ccc(-n2cc(C=NN=c3[nH]c(-c4ccc([N+](=O)[O-])cc4)cs3)c(-c3ccc([N+](=O)[O-])cc3)n2)cc1	PTGS1	enzyme activity	–	1 µM	24.1
COc1ccc(C(=O)Nc2c(-c3cccs3)nc3ccccn23)cc1	ADRA2B (Homo sapiens, UniProt P18089)	ligand displacement, radioligand	–	10 µM	< 50
O=C(NS(=O)(=O)c1cccs1)c1cc2ccccc2n1Cc1ccc(Br)c2ccccc12	XDH (Bos taurus, UniProt P80457)	enzyme activity, inhibitor, absorbance	–	10 µM	23.6
OC[C@H]1O[C@H](Oc2ccccc2-c2ccccc2)[C@H](O)[C@@H](O)[C@H]1O	Adhesin FmlH lectin domain	binding to desialylated mucin, ELISA competition	UPEC UTI89	100 µM	19.2 ± 3
Cc1ccc(CNC(=O)C(CCc2ccccc2)NC(=O)C(NC(=O)Cc2cccc(Oc3ccccc3)c2)C(C)O)cc1 (stereo not drawn)	CAPN1	enzyme activity, inhibitor	–	100 µM	29
Cc1ccnc(OC[C@H]2CN(CCN3CCc4ccccc43)CCO2)c1	HTR5A	radioligand binding	–	concentration not given, added: [3H]LSD	-11.6
CC(C)(C)CNC(=O)C[C@H](NC(=O)CCc1ccccc1)C(=O)N[C@@H](Cc1cccnc1)C(=O)NCc1ccccc1Cl	PLG	enzyme activity, inhibitor	–	100 µM	-10
C/C=C/C(=O)Nc1ccc2nc(NCCCCCN(C)C)nc(NCCCCCCN(C)C)c2c1	EZH2 (Homo sapiens, UniProt Q15910)	enzyme activity, inhibitor, radiometric	–	50 µM	72

Compound	target	test	test system	setting	inhibition [%]
Cc1ccc(CN(C)C(=O)C(CCc2ccccc2)NC(=O)C(NC(=O)c2ccc(OCc3ccccc3)cc2)C(C)O)cc1 (stereo not drawn)	PLG	enzyme activity, inhibitor	–	100 µM	-12
OC[C@H]1O[C@H](Oc2ccc(-c3ccccc3)cc2)[C@H](O)[C@@H](O)[C@H]1O	Adhesin FmlH lectin domain	binding to desialylated mucin, ELISA competition	UPEC UTI89	10 µM, added: desialylated bovine submaxillary mucin	22.6 ± 3.9
C[Si]1(C[C@H](CN)CC(=O)O)CCCC1	GALR1 (Homo sapiens, UniProt P47211)	enzyme activity, inhibitor	–	70 µM	3
OC[C@H]1O[C@@H](SCCc2ccccc2)[C@H](O)[C@@H](O)[C@H]1O	Adhesin FmlH lectin domain	binding to desialylated mucin, ELISA competition	UPEC UTI89	10 µM, added: desialylated bovine submaxillary mucin	2.3 ± 2.5
CN1CCN(Cc2ccc(-c3ccc(CO[C@H]4CCC[C@@H]4NC(=O)c4cc(-c5cnn(C)c5)cnc4N)cc3)cc2)CC1	PEAK1 (Homo sapiens, UniProt Q9H792)	enzyme activity, inhibitor	–	0.1 µM	6
O=C(NCCn1cccc1-c1nc(-c2ccc3c(c2)OCO3)no1)c1cccc(F)c1	USP51	enzyme activity, inhibitor	–	1 µM	16.6 ± 3.9
O=C1c2sc(-c3ccc(N4CCC(F)C4)nc3F)nc2CCN1c1cccnc1 (stereo not drawn)	ADRA2C	ligand displacement, radioligand	–	1 µM	4
C[Si](C)(C)C[C@@H](CN)CC(=O)O	High affinity choline transporter 1 (Rattus norvegicus, UniProt Q9JMD7)	ligand displacement, radioligand	–	75 µM	-42
CCn1cc(-c2cccc(C(F)(F)F)c2)c2sc(C(=N)NC3CCS(=O)(=O)CC3)cc2c1=O	Bromodomain testis-specific protein, BD1 (BRDT, Homo sapiens, UniProt Q58F21)	–	–	1 µM	-13.1
OC[C@H]1O[C@@H](Oc2cccc3cccnc23)[C@H](O)[C@@H](O)[C@H]1O	Adhesin FmlH lectin domain	binding to desialylated mucin, ELISA competition	UPEC UTI89	10 µM, added: desialylated bovine submaxillary mucin	48.1 ± 2
COc1ccc(OC)c(NC(=O)Cn2cnc3nc(N4CCCC4)ncc3c2=O)c1	USP51	enzyme activity, inhibitor	–	1 µM	6.5 ± 1.4
CC(=O)N[C@H]1[C@@H](Oc2ccc([N+](=O)[O-])cc2)O[C@H](CO)[C@H](O)[C@@H]1O	Adhesin FmlH lectin domain	binding to desialylated mucin, ELISA competition	UPEC UTI89	10 µM, added: desialylated bovine submaxillary mucin	6.3 ± 3.7
O=C1c2sc(-c3ccc(N4CCC(CO)CC4)nc3F)nc2CCN1c1cccnc1	SKCa channel	radioligand binding	–	1 µM, added: antagonist radioligand	-9
Cc1ccc(CNC(=O)C(CCc2ccccc2)NC(=O)C(NC(=O)c2ccc(OCc3ccc(C(C)(C)C)cc3)cc2)C(C)O)cc1 (stereo not drawn)	CAPN1	enzyme activity, inhibitor	–	100 µM	5
O=[N+]([O-])c1ccc(O[C@@H]2O[C@H](CO)[C@H](O)[C@H](O)[C@H]2O)cc1	Adhesin FmlH lectin domain	binding to desialylated mucin, ELISA competition	UPEC UTI89	10 µM, added: desialylated bovine submaxillary mucin	13.7 ± 5.3
CCOc1cc(C(=O)Nc2ccc3sc(C)nc3c2)cc(OCC)c1OCC	USP51	enzyme activity, inhibitor	–	1 µM	13 ± 2
CN1CC[C@@H](COc2cnc(C#N)cc2-c2ccn3nc(NC(=O)C4CC4)cc3c2)C1	ATM (Homo sapiens, UniProt Q13315)	enzyme activity, inhibitor	–	1 µM	-8
C=CC(=O)Nc1cccc(-c2cnc3[nH]cc(C(=O)NC(C)(C)C)c3n2)c1	CK2	kinase activity	–	0.1 µM	2
COc1ccc(CN2C(=O)C3CCCCC3C2=O)cc1S(=O)(=O)NCc1ccc2c(c1)OCO2 (stereo not drawn)	USP51	enzyme activity, inhibitor	–	1 µM	1.9 ± 0.2
CC(=O)N1C(=O)NC(C)=C(C(=O)OCC(C)C)[C@H]1c1cccc([N+](=O)[O-])c1	CACNA1H (Homo sapiens, UniProt O95180)	ion current, inhibitor, patch clamp	HEK293	10 µM	~80
NC(=O)C[C@H]1CCc2sc3ncnc(O[C@H]4CC[C@H](N5CCOCC5)CC4)c3c21	VRK1	enzyme activity, inhibitor	–	10 µM	5
Cc1ccc(-c2nn(-c3ccc(S(C)(=O)=O)cc3)cc2C=NN=c2[nH]c(-c3ccc([N+](=O)[O-])cc3)cs2)cc1	PTGS1	enzyme activity	–	0.01 µM	3.73
OC[C@H]1O[C@H](Oc2cccc(-c3ccccc3)c2)[C@H](O)[C@@H](O)[C@H]1O	Adhesin FmlH lectin domain	binding to desialylated mucin, ELISA competition	UPEC UTI89	100 µM	45.6 ± 2.5
CS(=O)(=O)c1ccc(-n2cc(C=NN=c3[nH]c(-c4ccc([N+](=O)[O-])cc4)cs3)c(-c3ccc(Br)cc3)n2)cc1	PTGS1	enzyme activity	–	10 µM	65.8
Oc1cc2c(cc1O)C(c1cccc3[nH]ccc13)NCC2 (stereo not drawn)	MAL12	enzyme activity, inhibitor	–	100 µM, DMSO solvent, added: pNPG substrate	77 ± 3.38

For quick reference, copied from above:
Compound	target	test	test system	setting	inhibition [%]
CN1CCN(Cc2ccc(-c3ccc(CO[C@H]4CCC[C@@H]4NC(=O)c4cc(-c5cnn(C)c5)cnc4N)cc3)cc2)CC1	PEAK1 (Homo sapiens, UniProt Q9H792)	enzyme activity, inhibitor	–	0.1 µM	6
Cc1cc(=O)oc2cc(O[C@@H]3O[C@H](CO)[C@H](O)[C@H](O)[C@H]3O)ccc12	Adhesin FmlH lectin domain	binding to desialylated mucin, ELISA competition	UPEC UTI89	100 µM	85.3 ± 0.7
COc1ccc(S(=O)(=O)c2c(O)c3ccc(C(=O)Nc4ccc(F)cc4)cc3[nH]c2=O)cc1	USP51	enzyme activity, inhibitor	–	1 µM	22 ± 5
OC[C@H]1O[C@H](Oc2ccccc2-c2ccccc2)[C@H](O)[C@@H](O)[C@H]1O	Adhesin FmlH lectin domain	binding to desialylated mucin, ELISA competition	UPEC UTI89	100 µM	19.2 ± 3
O=[N+]([O-])c1ccc(O[C@@H]2O[C@H](CO)[C@H](O)[C@H](O)[C@H]2O)cc1	Adhesin FmlH lectin domain	binding to desialylated mucin, ELISA competition	UPEC UTI89	10 µM, added: desialylated bovine submaxillary mucin	13.7 ± 5.3
C[Si](C)(C)C[C@@H](CN)CC(=O)O	High affinity choline transporter 1 (Rattus norvegicus, UniProt Q9JMD7)	ligand displacement, radioligand	–	75 µM	-42
C[C@@H]1O[C@@H](Oc2ccc(CC(N)=O)cc2)[C@H](O)[C@H](O)[C@H]1O	MAL12	inhibitor	–	100 µg/mL, 0.4167 h, added: p-nitrophenyl glucoside substrate	44.9 ± 2.82
COc1cc(-c2cc(CN(Cc3ccc(F)cc3)S(=O)(=O)c3ccccc3)no2)cc(OC)c1OC	USP51	enzyme activity, inhibitor	–	1 µM	32.2 ± 13.6
